Measurements of several laboratories.
Lines come from different studies, so protocols differ. ± marks the error that the study gave.

`CNC(C)C1CCC(N)C(OC2C(N)CC(N)C(OC3OCC(C)(O)C(NC)C3O)C2O)O1` (centres unmarked) has an EC20 of > 200 µM (cytochrome c release, ELISA; BALB/cByJ female mouse liver mitochondria; 30 min; baseline: alamethicin maximal release).
`CC(C)NC[C@@H](C(=O)N1CCN(c2ncnc3c2[C@H](C)C[C@H]3O)CC1)c1ccc(Cl)cc1` has a Vz/F of 21900 L (human, Healthy hepatic function (Child-Pugh), plasma; oral, 100 mg single dose, geometric mean).
The AUCinf of `O=C(c1cccnc1-c1ccncc1)N1CCC(O)(Cc2ccccc2)CC1` is reported as 2520 ng·h/mL (healthy human, plasma; oral, 400 mg once daily, day 1, arithmetic mean).
The tumour uptake of `N=C(N)NCCC[C@@H]1NC(=O)[C@H](CCCCNC(=O)CC[C@H](NC(=O)COCCOCCOCCNC(=O)[C@@H]2CSC(c3nc4ccc(OCCF)cc4s3)=N2)C(=O)NCCCC[C@@H]2NC(=O)[C@@H](Cc3ccc(O)cc3)NC(=O)[C@H](CC(=O)O)NC(=O)CNC(=O)[C@H](CCCNC(=N)N)NC2=O)NC(=O)[C@@H](Cc2ccc(O)cc2)NC(=O)[C@H](CC(=O)O)NC(=O)CNC1=O` [fluorine-18 labelled] is reported as 5.62 ± 1.15 %ID/g (microPET; nude mice, U-87 MG xenograft, tumour; intravenous, 30 min).
`CC(C)C[C@H](NC(=O)[C@@H](Cc1c[nH]c2ccccc12)NC(=O)[C@H](Cc1ccc(O)cc1)NC(=O)[C@H](CO)NC(=O)[C@H](Cc1c[nH]c2ccccc12)NC(=O)[C@H](Cc1c[nH]cn1)NC(=O)[C@@H]1CCC(=O)N1)C(=O)N[C@@H](CCCNC(=N)N)C(=O)N1CCC[C@H]1C(=O)NCC(N)=O` gave a degradation of 26.2 ± 5.74% (LC-MS/MS; Sprague-Dawley rat skin homogenate; 5 min, pH 7.4, 37 °C).
`CC1(C)S[C@@H]2[C@H](NC(=O)[C@H](N)c3ccc(O)cc3)C(=O)N2[C@H]1C(=O)O` has an EC20 of > 400 µM (mitochondrial swelling; BALB/cByJ female mouse liver mitochondria; 30 min, with: succinate + rotenone; baseline: CaCl2 maximal swelling).
The drug released of `CC(C)(C)NC(=O)[C@@H]1C[C@@H]2CCCC[C@@H]2CN1C[C@@H](O)[C@H](Cc1ccccc1)NC(=O)[C@H](CC(N)=O)NC(=O)c1ccc2ccccc2n1` is reported as ~20% (USP dissolution apparatus II; distilled water; concentration not given, 120 min, pH 6.5, 37 °C).
With `[2H]C([2H])([2H])Oc1cc2c(cc1OC([2H])([2H])[2H])C1CC(=O)C(CC(C)C)CN1CC2` (centres unmarked) the dose-normalized AUC(0-inf) was 5.47 ng·h/mL (item: deuterated β-HTBZ; healthy human volunteers, plasma; oral, 18 mg single dose, standard meal).
`C=CC(=O)Nc1cc(Nc2nccc(-c3cn(C)c4ccccc34)n2)c(OC)cc1N(C)CCN(C)C`: “apparent volume of distribution” 71.7 ± 28 L/kg (Sprague-Dawley rat, male, plasma; oral, 10 mg/kg, with: avitinib 30 mg/kg single dose on day 7).
`CCN1C(=O)CNc2ncc(-c3ccc(-c4nc[nH]n4)nc3C)nc21` has an AUC(0-24h) of 286 ng·h/mL (human, plasma; oral, 8 mg once daily, multiple doses).
`C[C@]12CC[C@@H]3c4ccc(O)cc4CC[C@H]3[C@@H]1C[C@@H](O)[C@@H]2O` — result for “median serum concentration”: 0 ng/mL (GC-MS; breast cancer women on NSAI, serum; vaginal, 0.03 mg daily, 6 h, day 28).
With `Cn1c(-c2ccc(C(N)=O)cc2F)nnc1C(C)(C)Oc1c(F)cc(Cl)cc1F` the half-life median was 10.1 h (young Japanese adults, plasma; oral, 50 mg single dose, day 1, high-dose multiple-dose study).
`CC[C@H](C)[C@H](NC(=O)[C@H](CC(C)C)NC(=O)[C@H](Cc1c[nH]c2ccccc12)NC(=O)[C@H](C)NC(=O)[C@@H](NC(=O)[C@H](Cc1ccccc1)NC(=O)[C@H](CC(=O)O)NC(=O)[C@H](CCCNC(=N)N)NC(=O)[C@H](C)NC(=O)[C@H](C)NC(=O)[C@H](CC(C)C)NC(=O)[C@H](C)NC(=O)[C@H](CC(=O)O)NC(=O)[C@H](CC(C)C)NC(=O)[C@@H](NC(=O)[C@@H](NC(=O)[C@H](C)NC(=O)[C@H](CC(C)C)NC(=O)[C@H](CCC(=O)O)NC(=O)[C@H](CO)NC(=O)[C@H](CO)NC(=O)[C@H](Cc1ccccc1)NC(=O)[C@@H](NC(=O)CNC(=O)[C@H](CCC(=O)O)NC(=O)CNC(=O)[C@@H](N)Cc1cnc[nH]1)[C@@H](C)O)[C@@H](C)O)[C@@H](C)CC)[C@@H](C)CC)C(=O)N[C@@H](C)C(=O)N[C@H](C(=O)N[C@@H](CCCCN)C(=O)N[C@H](C(=O)N[C@H](C(=O)N[C@@H](CC(=O)O)C(=O)N[C@@H](CCCCN)C(=O)N[C@@H](CCCCN)C(=O)N[C@@H](CCCCN)C(=O)N[C@@H](CCCCN)C(=O)N[C@@H](CCCCN)C(=O)N[C@@H](CCCCN)C(N)=O)[C@@H](C)O)[C@@H](C)CC)[C@@H](C)O` — result for “Vss over body weight”: ~20% (healthy human subjects, plasma; intravenous infusion, 1 mg glepaglutide).
`CC(=O)N[C@@H](Cc1ccccc1)C(=O)N[C@H]1CCCNC(=O)[C@H](CCCNC(=N)N)NC(=O)[C@H](Cc2c[nH]c3ccccc23)NC(=O)[C@@H](CC2CCCCC2)NC(=O)[C@@H]2CCCN2C1=O` gave an elimination half-life of 1.02 h (C57BL/6J mice, brain; subcutaneous, 1 mg/kg).
The CL/F of `Nc1nc(NC2CC2)c2ncn([C@H]3C=C[C@@H](CO)C3)c2n1` is reported as 18.4 mL/min/kg (HIV-infected children and adolescents, Tanner stage 3-5, plasma; oral, 8 mg/kg).
`COCCCCn1c(C(=O)N(CC(C)C)[C@@H]2CNC[C@H](C(=O)N3CCOCC3)C2)nc2ccccc21` has an AUC(0-tau) of 3730 ng·h/mL (non-elderly human, plasma; oral, 80 mg once daily, day 1).
`Cc1nc2cccc(OCC(C)(C)C(=O)NC(C)C)c2c(N)c1C(=O)O` gave a Tmax of 6 h (female Sprague-Dawley rat, plasma; dietary, 60 mg/kg/day, day 7).
The half-life of `CC(C)(c1ccc(O)cc1)c1ccc(O)cc1` is reported as 3.04 h (GC-MS; exposure tank water with snails, reconstituted water; 250 ng/L nominal, 20 °C).
`CC[C@H](C)[C@H](NC(=O)[C@H](Cc1ccccc1)NC(=O)[C@H](CCC(=O)O)NC(=O)[C@H](CCCCNC(=O)COCCOCCNC(=O)COCCOCCNC(=O)CC[C@H](NC(=O)CCCCCCCCCCCCCCCCC(=O)O)C(=O)O)NC(=O)[C@H](C)NC(=O)[C@H](C)NC(=O)[C@H](CCC(N)=O)NC(=O)CNC(=O)[C@H](CCC(=O)O)NC(=O)[C@H](CC(C)C)NC(=O)[C@H](Cc1ccc(O)cc1)NC(=O)[C@H](CO)NC(=O)[C@H](CO)NC(=O)[C@@H](NC(=O)[C@H](CC(=O)O)NC(=O)[C@H](CO)NC(=O)[C@@H](NC(=O)[C@H](Cc1ccccc1)NC(=O)[C@@H](NC(=O)CNC(=O)[C@H](CCC(=O)O)NC(=O)C(C)(C)NC(=O)[C@@H](N)Cc1cnc[nH]1)[C@@H](C)O)[C@@H](C)O)C(C)C)C(=O)N[C@@H](C)C(=O)N[C@@H](Cc1c[nH]c2ccccc12)C(=O)N[C@@H](CC(C)C)C(=O)N[C@H](C(=O)N[C@@H](CCCNC(=N)N)C(=O)NCC(=O)N[C@@H](CCCNC(=N)N)C(=O)NCC(=O)O)C(C)C`: “absorption rate constant” 2.09 h⁻¹ (healthy human; oral).
`CO[C@]12C[C@@H](COC(=O)c3cncc(Br)c3)CN(C)[C@@H]1Cc1cn(C)c3cccc2c13` gave an EC20 of 170 µM (mitochondrial swelling; BALB/cByJ female mouse liver mitochondria; 30 min, with: succinate + rotenone; baseline: CaCl2 maximal swelling).
For `CC(C)CCCCC(=O)N[C@@H](CCN)C(=O)N[C@H](C(=O)N[C@@H](CCN)C(=O)N[C@H]1CCNC(=O)[C@H]([C@@H](C)O)NC(=O)[C@H](CCN)NC(=O)[C@H](CCN)NC(=O)[C@H](CC(C)C)NC(=O)[C@@H](Cc2ccccc2)NC(=O)[C@H](CCN)NC1=O)[C@@H](C)O`, the free Cmin was 70 ng/mL (equilibrium dialysis LC-MS/MS; human patients, plasma; dose not given, median).
The mean concentration of `O=C(/C=C/c1ccc(O)c(O)c1)O[C@@H]1C[C@](O)(C(=O)O)C[C@@H](O)[C@H]1O` is reported as 3.2 nM (human, fasted baseline, cerebrospinal fluid).
`CN(C)C/C=C/C(=O)Nc1cc2c(Nc3ccc(F)c(Cl)c3)ncnc2cc1O[C@H]1CCOC1` — result for “Vz/F at steady state”: 3150 L (human, plasma; oral, 40 mg once daily, day 27, geometric mean).
With `O=C(Cc1cccc(OC(F)(F)F)c1)Nc1ccc(CCCCc2nnc(NC(=O)Cc3ccccn3)s2)nn1` the AUC(0-8h) was 5830 ng·h/mL (human patients, plasma; oral, 800 mg three times daily fasted, cycle 1 day 15 steady state).
For `CS(=O)(=O)n1cc2c(n1)CN([C@H]1CO[C@H](c3cc(F)ccc3F)[C@@H](N)C1)C2`, the AUC(0-24h) was 69 µM·h (healthy male human, plasma; oral, 200 mg, fasted, geometric mean).
`CCCC[C@@H]1NC(=O)[C@@H](NC(=O)[C@H](CCC(=O)O)NC(=O)CNC(=O)CN2CCN(CC(=O)O)CCN(CC(=O)O)CCN(CC(=O)O)CC2)CCCCNC(=O)C[C@@H](C(N)=O)NC(=O)[C@H](C(C)C)NC(=O)[C@@H]2CCCN2C(=O)[C@H](CCCNC(=N)N)NC(=O)CNC(=O)[C@H](Cc2c[nH]c3ccccc23)NC(=O)[C@H](CCCNC(=N)N)NC(=O)[C@@H](Cc2ccccc2)NC(=O)[C@H](Cc2c[nH]cn2)NC(=O)[C@H](CCC(=O)O)NC1=O` [indium-111 labelled] gave a tissue uptake of 0.03 ± 0.01 %ID/g (normal C57 mice, bone; intravenous, 0.037 MBq, 24 h).
`CC[C@H](C)C(=O)O[C@H]1C[C@H](O)C=C2C=C[C@H](C)[C@H](CC[C@@H](O)C[C@@H](O)CC(=O)O)[C@H]21` gave an EC20 of > 200 µM (mitochondrial swelling; BALB/cByJ female mouse liver mitochondria; 30 min, with: succinate + rotenone; baseline: CaCl2 maximal swelling).
The Km of `CC1=C(/C=C/C(C)=C/C=C/C(C)=C/C(=O)Nc2ccc(O)cc2)C(C)(C)CCC1` is reported as 17.8 ± 9.4 µM (substrate, item: 4'-hydroxy metabolite formation; human liver microsomes; 3 h, pH 7.4).
With `C[N+]1(CC(=O)NC2CCCCCCCCCCC2)CCCCC1.[I-]` the half-life was 0.118 h (metabolic stability; male CD-1 mouse, liver microsomes; 1 µM, pH 7.4).
For `O=c1c(O)c(-c2ccc(O)c(O)c2)oc2cc(O)cc(O)c12`, “log intrinsic permeability” read -5.15 (in situ brain perfusion; rat; no efflux inhibition).
Under “cathodic peak potential”, `COc1ccc(OCC2=C(C)C(=O)c3ccccc3C2=O)cc1C(F)(F)F` is recorded as -0.62 V (cyclic voltammetry; DMSO; first wave, vs Ag/AgCl).
The cleavage of `RLQLKL` is reported as > 90% (substrate; peptide, mouse tumour extract 2%; 5 µM, 4 h, 37 °C).
`NNC(=O)c1ccncc1` has an EC20 of > 800 µM (mitochondrial swelling; BALB/cByJ female mouse liver mitochondria; 30 min, with: succinate + rotenone; baseline: CaCl2 maximal swelling).
With `CCCCCCCCCCCCCCC[C@H](O)[C@@H](N)CO` the AUC was 102 µM·h (human, phase I, plasma; intravenous, 750 mg/m^2, day 1, monotherapy).
With `CCOc1ccc2c(c1)C(C)=CC(C)(C)N2` the residue concentration was 298 ± 73.8 ng/g (LC-MS/MS; laying hens, skin/fat; oral, 50 mg/kg feed, 56 days).
`CO[C@@]12[C@H](COC(N)=O)C3=C(C(=O)C(C)=C(N)C3=O)N1C[C@@H]1N[C@@H]12` has an EC20 of > 200 µM (cytochrome c release, ELISA; BALB/cByJ female mouse liver mitochondria; 30 min; baseline: alamethicin maximal release).
With `CN[C@H]1CN(c2ccc3c(=O)c(C(=O)O)cn(-c4nccs4)c3n2)C[C@@H]1OC` the Vss was 145 L (human patients, plasma; intravenous, 9 to 50 mg/m^2 twice weekly, day 4, cycle 1, mean, noncompartmental).
The EC20 of `Nc1c(Br)cc(Br)cc1CN[C@H]1CC[C@H](O)CC1` is reported as > 400 µM (mitochondrial swelling; BALB/cByJ female mouse liver mitochondria; 30 min, with: succinate + rotenone; baseline: CaCl2 maximal swelling).
`CS(=O)(=O)c1ccc(-c2cnc(N)c(-c3ccc(C(F)(F)F)nc3)c2)cc1` gave an AUC(0-t) of 126000 ng·h/mL (Sprague-Dawley rat, pregnant female, plasma; oral, 30 mg/kg/day, gestation day 6).
`O=c1ccc2ccccc2o1` gave an EC20 of > 100 µM (cytochrome c release, ELISA; BALB/cByJ female mouse liver mitochondria; 30 min; baseline: alamethicin maximal release).
`COc1c(O)cc2oc3cc(O)cc(O)c3c(=O)c2c1C/C=C(\C)CCC=C(C)C`: “absorption rate constant” 1.07 ± 0.87 h⁻¹ (mouse, plasma; oral, 700 mg/kg, virgin coconut oil suspension).
